Results from different studies.
A part holds a random share of what one study measured. Substitutions count along the parent as printed.

Block 1 — target: CCNB3, cyclin fold, Cln2 fusion (human); technique: yeast growth competition, sequencing; medium: yeast; setting: weak parent motif; reference: not given; direction: higher = stronger binding
Parent: PKN2 docking peptide (human); VSAVQKLDFSDTM; partner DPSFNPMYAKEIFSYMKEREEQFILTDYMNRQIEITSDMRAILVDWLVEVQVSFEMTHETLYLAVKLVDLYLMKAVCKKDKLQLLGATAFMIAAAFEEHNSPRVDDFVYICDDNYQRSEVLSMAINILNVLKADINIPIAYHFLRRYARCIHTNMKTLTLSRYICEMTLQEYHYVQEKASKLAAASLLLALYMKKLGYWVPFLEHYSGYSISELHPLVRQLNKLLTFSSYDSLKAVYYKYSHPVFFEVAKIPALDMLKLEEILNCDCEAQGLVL
Variant | normalised enrichment score
M13Q | -0.157
L7F | 0.357
S10A | 0.0447
V1T | 0.322
S2D | -0.102
S2H | -0.214
D8W | 0.569
V4T | -0.0893
L7M | 0.152
D8K | 0.457
D11A | 0.288
A3F | 0.128
D11M | 0.139
S10H | 0.388
S10W | 0.274
V1A | -0.0483
S2R | 0.321
T12E | 0.832
S2Y | 0.398
K6M | 0.211
S2Q | 0.325
V1M | 0.258
M13H | 0.29
D8Y | 0.384
M13I | 0.271

Block 2 — technique: protein binding microarray; form: double-stranded DNA, one strand shown; medium: in vitro; concentration: not given; reference: not given; direction: higher = stronger binding
Target: Histone acetyltransferase KAT6A, both winged helices, GST fusion (KAT6A, Homo sapiens, UniProt Q92794, residues 1-181)
Setting: 8-mer, flanks averaged, mean of 2 arrays, mostly near background
Residues (chain): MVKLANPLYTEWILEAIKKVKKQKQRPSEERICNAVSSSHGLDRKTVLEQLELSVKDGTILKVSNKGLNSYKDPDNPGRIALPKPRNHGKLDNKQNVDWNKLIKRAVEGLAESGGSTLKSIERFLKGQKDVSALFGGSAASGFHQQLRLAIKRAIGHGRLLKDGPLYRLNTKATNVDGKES
Sequence | E-score
GATGCAAA | -0.146
AAATGATA | 0.0246
CCAGTCGA | -0.0944
GTGCCTCA | -0.0383
CCGAGTTA | 0.022
GACCGGTC | 0.2
GCTTATAC | 0.103
GATACACA | -0.123
CAAATAAC | -0.0159
GCGGTCGA | 0.219
ATTTAATG | 0.0323
ACCTTACA | -0.132
ATGAAGAA | -0.0449
CAACGTCG | 0.0061
GCACTGGC | 0.00666
AAGGAGTC | -0.231
AGATATCT | -0.159
CTCAGACA | -0.0908
AAACGGAT | 0.156
CTTTCGTA | -0.0526
AGATTGCG | 0.17
CCAAGGCC | 0.00443
ATAAACGG | 0.2

Block 3 — technique: RNA Bind-n-Seq; form: RNA; medium: in vitro; concentration: 365 nM; reference: no-protein control; direction: higher = stronger binding
Target: RNA binding protein fox-1 homolog 2, RRM domain, GST-SBP tag (RBFOX2, Homo sapiens, UniProt O43251-10, residues 100-194)
Setting: natural RNA segment, single round, ends assumed
Target sequence (chain): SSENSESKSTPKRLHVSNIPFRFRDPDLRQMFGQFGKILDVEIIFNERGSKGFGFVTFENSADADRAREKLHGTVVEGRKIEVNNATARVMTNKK
Sequence | RBNS enrichment (R)
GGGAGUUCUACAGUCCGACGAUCAACAACCUCUAUAUUUUCACUGUAUGUUAUGGCAGAAUUUUAGUCACGUCCAAAACAAAAGAUUAUUCCAGAAGAUACCUCAUCCUAUGCCUGAAAGGCUCCACAGCAUGUGGAAUUCUCGGGUGCCAA | 3.46
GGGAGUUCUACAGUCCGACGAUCUGAAAUCCCUGCCAGACGGCUCAGCCUGGUCUGCGGUAAGGCAGGGAGGCUGGAACCAUUUCUGGGCAUUGUGGUCAUUCCCACUGUGUUCCUCCACCUCCUCCCUCCAGUGGAAUUCUCGGGUGCCAA | 0.44
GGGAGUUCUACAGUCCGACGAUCGUUGUAUUUUGUUGGUAAUUAUUUUGGUACUUCUAAGAUGUAUAUUUAUUAAACAGAUUUUUACAGAAGCAUUGUCCCGCUCGUUUGCUAUUCUGAGUGGCUUGUUCCUGUGGAAUUCUCGGGUGCCAA | 0.657
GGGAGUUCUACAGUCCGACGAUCGAUUUUGGGCCUAAAGAUGCCAGUGCUUUUCAGCUGUGGUGUGCAUGUCAUUAACUACCCCUCUCUGUUUUUACCCCUCUACCUUUGCAGGACCCGGGUCAUGGGUCAGUUGGAAUUCUCGGGUGCCAA | 6.01
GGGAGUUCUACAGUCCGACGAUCCCAGUCAAGGUUGCUCUGAACUUUCCCAUAACCAUUAUCCCCCAAGACCACCAGGCUCUGAGUGACCUCUCUAAUUCUGUCUUCCCACCCACCAGUGACUUGACUGCUCUUGGAAUUCUCGGGUGCCAA | 0.774
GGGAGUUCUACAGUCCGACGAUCAGCAGCAUUGGCUGCUUUUGUUGGUAGCAUGGAUUCAUGUUUUCUCAGAGGAACUUUUCACUUGAAACUGUUGAUCUACUUGUCCAAAAGACCAGCUGCUGCGACACUAAUGGAAUUCUCGGGUGCCAA | 0.381
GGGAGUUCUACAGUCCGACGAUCGCCAAUGGAGAAAUGCAGCAUUCACUCUCCCUGUCUUUUCCCCUUCCCUCAGCAGAAACGUGUUUAUCAGCAAGUCGUGAGUCAAACUGCUGCCUUUUAAAAAACCCACAUGGAAUUCUCGGGUGCCAA | 1.5
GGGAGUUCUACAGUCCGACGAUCACCGAGAAAGUAAUUAUAGAGAAAUAAGCUGGUACGUCCAGCUUCAUUACUAUCCCUUGGGCUAACCAGCAAGAAGAUUGUACAUCACAGAACUGGAUGAGCCAAACAGCUGGAAUUCUCGGGUGCCAA | 0.322
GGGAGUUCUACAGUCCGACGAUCUGUUUUAACUGCCUUUCUGUUGAACUGUGGGGCUCUGAUUUGUGUCUAGAUUAUUGUAUAUUCUCACUGGUAUGCUGUUCCCUGGGGGGUGUUCUGUGUCCGACGCUGAGUGGAAUUCUCGGGUGCCAA | 0.963
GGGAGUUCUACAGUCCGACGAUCUGUAUUGCUCAGUAUUCACUUAGAAGGGUUUCUUUCUCUUUGGCCUAGUUUGUGAAGGGAUCUUCCUUUGGACUUUCUCUAAGUUGGGAGAAGAACAUUCUUUUCAAUGGUGGAAUUCUCGGGUGCCAA | 0.265
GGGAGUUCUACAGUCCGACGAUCAUCACUGGCUCCAGAAUUGUCUUUGCCCUUCUCACCUGUUCCUGGAAACUGGGGCAGCCAGUGCUUAUCUGCACACUCCAGAUGAGAAGGCAUACAGGAGGGGGCCCACUUGGAAUUCUCGGGUGCCAA | 0.278
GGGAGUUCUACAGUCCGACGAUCCUGGCUUUUCCUCACAAAGAAUGUCUAGACAAACAGCAGCUUAGUCUCCUGACACCUCUUGUGGGGUGCAUGUUCCUGCUCCAGGUAUGCUGUUCAUGUGGAUUCAUUCCUGGAAUUCUCGGGUGCCAA | 3.83

Block 4 — technique: universal PBM; form: double-stranded DNA, one strand shown; medium: in vitro; concentration: not given; direction: higher = stronger binding
Target: Sal-like protein 4, full length isoform B (SALL4, Homo sapiens, UniProt Q9UJQ4-2, residues 1-616)
Setting: 8-mer, flanks averaged, mean of replicates
Sequence | E-score
AGAATCGC | -0.0204
CAGCACTA | -0.0458
AAATAGAC | 0.146
CTATTCTA | 0.165
CTGACGGA | -0.0385
GAGTATCC | -0.183
CAGAGATG | 0.0579
AGGGGAAG | -0.212
CCCAGCCG | -0.345
CAGCCTGC | -0.199
AGTTGTGC | -0.169
TCTCAAGA | -0.0339
GCCGTCTA | -0.202
ACCACAGA | 0.00133
AGGTTCTA | 0.014
ACGCACCT | -0.0632
ACGACATA | 0.11

Block 5 — technique: RNA Bind-n-Seq; form: RNA; medium: in vitro; concentration: not given; setting: RNA with constant flanks, ends assumed; reference: input RNA pool; direction: higher = stronger binding
Target: RING finger protein unkempt homolog, zinc fingers 1-6, GST-SBP tag (UNK, Homo sapiens, UniProt Q9C0B0, residues 30-357)
Residues (chain): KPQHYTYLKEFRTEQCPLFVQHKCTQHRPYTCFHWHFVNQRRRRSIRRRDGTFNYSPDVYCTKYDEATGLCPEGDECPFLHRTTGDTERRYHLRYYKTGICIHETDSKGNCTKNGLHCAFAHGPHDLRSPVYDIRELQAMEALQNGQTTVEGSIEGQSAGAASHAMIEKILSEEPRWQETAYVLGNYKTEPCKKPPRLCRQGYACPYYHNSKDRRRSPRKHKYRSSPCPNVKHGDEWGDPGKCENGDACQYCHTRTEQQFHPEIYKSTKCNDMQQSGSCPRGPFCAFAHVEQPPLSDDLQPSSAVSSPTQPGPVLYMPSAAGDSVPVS
Sequence | bound/input enrichment [ratio]
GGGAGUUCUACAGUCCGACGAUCACUGUGAAGGAAGAAAAAAGUUGGCAUUUCUUGGUCCUCCGUUCAUAACACAAAGCAGAGCCGUAUUUUUAUAUUUAAAUGUUAAAAACAAAAAAGUUAUAUAUAUAUGGAUGUGUGGAUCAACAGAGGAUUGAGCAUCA | 0.491
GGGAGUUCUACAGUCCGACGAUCUCAGUUAAGUUGUCAGAAAACAUGAAGGCUUCAUCCUUUAAAAAACUACAGAAGUUUUAUACCGACCCAUAUAAGCUGCUGCCACUGCAGAGGUUUUUACCUCGACCUCCAGGUGAGAAACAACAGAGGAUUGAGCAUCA | 0.267
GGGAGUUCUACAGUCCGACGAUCCAACCUCAGAGCCCUGACUUCCUGGACAUCACCAACCCCAAAGCCGUAUUAGAAAACGCACUCCGGAACUUUGCCUGUCUGACCACCGGGGAUGUGAUUGCCAUCAACUAUAAUGAAAAGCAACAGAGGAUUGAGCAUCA | 0.698
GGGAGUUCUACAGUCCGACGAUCUGUGUCAUCCGAUGCUUAGUAAAGAAAAGAGCUCUUAUUGCAGGAGGUGGUGCUCCAGAAACCGAGCUGGCCCUCAGACUGACAGAGUACUCCCGAACACUGAGUGGUAUGGAGUCCUACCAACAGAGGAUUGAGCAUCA | 0.16
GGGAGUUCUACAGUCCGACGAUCUUACUGCACGUCAGUUUUUAUAAGGCACUUCAAGUAGUUUUGUGGAAAGAGAUGAGGUUUCCGUCCGAAUACAAUUGCCUUUUAAUUCAUGUUUUAAGAAAUUAAUGUUAGAAGUAAAAGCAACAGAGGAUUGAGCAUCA | 0.522
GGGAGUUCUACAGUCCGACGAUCUUCAUCUCUCAUUUUAUAUGUCCAGAAAUGGCUUUGAAUUUUAAGCAAUUACUAGUUUUAAUCCGCUCUGCCCUCAUGAAGUAUUAUUAUAAUUCACCAUAAACAGCUAUCUGUCUGAAUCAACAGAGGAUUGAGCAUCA | 18.2
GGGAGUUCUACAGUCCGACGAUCUGGUCAUUUAUAGCAAUUAGAGUGGGUUGCCCCUCUACUUCUCCCAAGAAGAAAUCCCAAACCGAUUCCUUUCAUGUCAGAUUAUACUGUUCUGAUUUUAUUUUCUAUUAUUUUUACAUACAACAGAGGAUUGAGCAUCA | 5.79
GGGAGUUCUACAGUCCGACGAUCCAGCUGCUUACACAAGAUGUAGAAAAAUUUUGUAACAGUGUAGUCGAUCUGUAUUCAAAUCUCCGUAAGCCAUUUUUAGACAUAGUUUUGUAUAUCUUUAAGUUAACGAGUGCAAUUGGACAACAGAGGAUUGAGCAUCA | 8.05
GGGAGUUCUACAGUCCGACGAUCCUGAACAAAAUUACAAAGAAUCUAGGAUUUGGGAUGGGAAUUGAAUUCCGUGAAGGCUCUCCCGUAAUCAAUAGUAAAAAUCAGUACAAGCUAAAGAAAGGGAUGGUUUUUAGCAUCAAUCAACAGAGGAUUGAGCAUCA | 1.94
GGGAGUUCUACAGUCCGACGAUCCCUGGUAAAUCUCAGGCAUCUAAUUUGAGAAAACGAGAAACCACAGCGUCUUCUAAAACAGCCGCAGCCAGGUCAGCACAGAAUCAGCCUCGGAAAGAAGAUCAGAAGAGAGCCUUCGUGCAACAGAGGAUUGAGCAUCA | 0.125
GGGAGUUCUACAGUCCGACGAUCAGGUCUGACCGAGUUAAGAGCGUGGAUUUGCAUCCCACAGAGCCAUGGAUGUUGGCCCGUCUUUACAAUGGCAGUGUGUGUGUUUGGAAUCAUGAAACUCAGACACUGGUGAAGACGUUUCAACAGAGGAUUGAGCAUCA | 0.0931

Some of these lines once more (block 1):
Variant | normalised enrichment score
D8W | 0.569
V4T | -0.0893
L7M | 0.152
D8K | 0.457
D11A | 0.288
A3F | 0.128
D11M | 0.139
S10H | 0.388
S10W | 0.274
